Measurements pooled from the literature.
Each line is one published result; not all experiments were run side by side. ± marks the error that the study gave.
GLP1R: Glucagon-like peptide 1 receptor (GLP1R, Homo sapiens, UniProt P43220)
DCN1-like protein 1: DCN1-like protein 1 (Homo sapiens, UniProt Q96GG9)
Sequence of UniProt Q96GG9 (whole entry, looked up): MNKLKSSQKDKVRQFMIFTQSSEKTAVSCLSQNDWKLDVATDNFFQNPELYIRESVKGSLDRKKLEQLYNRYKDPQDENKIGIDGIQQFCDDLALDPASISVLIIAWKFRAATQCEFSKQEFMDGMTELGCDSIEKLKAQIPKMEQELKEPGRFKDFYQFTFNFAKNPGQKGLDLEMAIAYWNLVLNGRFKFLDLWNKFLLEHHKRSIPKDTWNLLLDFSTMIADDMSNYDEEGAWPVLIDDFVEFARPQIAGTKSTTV
Sequence of UniProt Q16531 (whole entry, looked up): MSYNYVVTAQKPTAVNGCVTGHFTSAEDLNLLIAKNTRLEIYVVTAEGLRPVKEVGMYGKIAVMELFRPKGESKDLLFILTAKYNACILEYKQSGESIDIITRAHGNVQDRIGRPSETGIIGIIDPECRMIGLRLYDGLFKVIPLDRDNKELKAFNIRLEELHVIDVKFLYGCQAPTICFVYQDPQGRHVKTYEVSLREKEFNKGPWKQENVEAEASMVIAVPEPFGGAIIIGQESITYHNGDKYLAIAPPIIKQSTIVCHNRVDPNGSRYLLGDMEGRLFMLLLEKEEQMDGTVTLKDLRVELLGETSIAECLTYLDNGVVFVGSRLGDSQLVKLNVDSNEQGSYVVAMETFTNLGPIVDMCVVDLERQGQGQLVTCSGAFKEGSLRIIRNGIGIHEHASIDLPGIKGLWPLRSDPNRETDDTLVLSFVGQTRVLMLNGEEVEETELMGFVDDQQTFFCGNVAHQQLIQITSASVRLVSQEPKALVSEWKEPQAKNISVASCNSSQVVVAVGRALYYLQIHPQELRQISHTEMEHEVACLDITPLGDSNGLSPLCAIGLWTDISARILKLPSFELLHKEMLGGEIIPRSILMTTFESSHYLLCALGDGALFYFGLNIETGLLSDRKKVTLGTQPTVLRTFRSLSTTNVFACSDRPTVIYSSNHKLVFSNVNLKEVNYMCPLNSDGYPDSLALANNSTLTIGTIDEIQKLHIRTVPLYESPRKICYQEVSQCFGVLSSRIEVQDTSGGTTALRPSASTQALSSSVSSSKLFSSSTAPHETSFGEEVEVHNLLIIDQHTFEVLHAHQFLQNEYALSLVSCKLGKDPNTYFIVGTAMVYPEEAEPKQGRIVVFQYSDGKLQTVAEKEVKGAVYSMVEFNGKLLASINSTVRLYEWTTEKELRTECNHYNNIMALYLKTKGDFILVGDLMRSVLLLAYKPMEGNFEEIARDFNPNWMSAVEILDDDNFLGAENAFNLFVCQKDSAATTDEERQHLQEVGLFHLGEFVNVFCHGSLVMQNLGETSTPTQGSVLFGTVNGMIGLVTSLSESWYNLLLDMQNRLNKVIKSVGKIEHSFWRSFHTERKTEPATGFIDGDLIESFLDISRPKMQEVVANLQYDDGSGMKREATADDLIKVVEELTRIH
Sequence of UniProt P08588 (whole entry, looked up): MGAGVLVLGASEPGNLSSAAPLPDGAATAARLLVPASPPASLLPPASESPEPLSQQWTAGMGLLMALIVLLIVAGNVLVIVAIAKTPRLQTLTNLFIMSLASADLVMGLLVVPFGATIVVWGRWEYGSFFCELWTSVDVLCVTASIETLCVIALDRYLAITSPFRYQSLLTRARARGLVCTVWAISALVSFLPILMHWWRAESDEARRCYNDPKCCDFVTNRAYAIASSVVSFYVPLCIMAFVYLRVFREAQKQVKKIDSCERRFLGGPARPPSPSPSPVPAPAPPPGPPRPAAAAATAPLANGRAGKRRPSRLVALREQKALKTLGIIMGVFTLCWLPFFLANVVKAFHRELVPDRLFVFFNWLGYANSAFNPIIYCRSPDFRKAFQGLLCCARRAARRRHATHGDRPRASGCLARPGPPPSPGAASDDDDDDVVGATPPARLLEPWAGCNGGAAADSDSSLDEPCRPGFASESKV
Sequence of UniProt Q9Y6A2 (whole entry, looked up): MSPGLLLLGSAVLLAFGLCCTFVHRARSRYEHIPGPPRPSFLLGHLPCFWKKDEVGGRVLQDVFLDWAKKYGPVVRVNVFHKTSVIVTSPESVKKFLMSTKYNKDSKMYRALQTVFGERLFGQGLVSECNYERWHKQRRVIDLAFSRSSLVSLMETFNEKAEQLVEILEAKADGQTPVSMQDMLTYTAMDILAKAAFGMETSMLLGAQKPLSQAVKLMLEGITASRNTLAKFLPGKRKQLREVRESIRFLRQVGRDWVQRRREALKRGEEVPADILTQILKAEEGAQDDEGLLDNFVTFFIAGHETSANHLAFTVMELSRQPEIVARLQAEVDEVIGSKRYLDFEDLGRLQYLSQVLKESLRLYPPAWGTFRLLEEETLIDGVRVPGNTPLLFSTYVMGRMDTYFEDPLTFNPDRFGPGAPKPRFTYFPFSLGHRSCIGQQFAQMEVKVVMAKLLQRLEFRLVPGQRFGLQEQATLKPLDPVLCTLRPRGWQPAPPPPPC

CO[C@H]1C[C@@H]2CC[C@@H](C)[C@@](O)(O2)C(=O)C(=O)N2CCCC[C@H]2C(=O)O[C@H]([C@H](C)C[C@@H]2CC[C@@H](OC(=O)NCCOCCOCCOCCOCCOCCOCCOCCOCCC(=O)N3CCc4cc(Cn5nc(-c6ccc7oc(N)nc7c6)c6c(N)ncnc65)ccc4C3)[C@H](OC)C2)C[C@@H](O)[C@H](C)/C=C(\C)[C@@H](O)[C@@H](OC)C(=O)[C@H](C)C[C@H](C)/C=C/C=C/C=C/1C  incidence of Mucositis TEAE (patients with advanced solid tumours; intravenous, 1.6 mg/3 mg weekly, any grade): 20%
CC[C@H](C)[C@H](NC(=O)[C@H](Cc1ccccc1)NC(=O)[C@H](CCC(=O)O)NC(=O)[C@H](CCCNC(=N)N)NC(=O)[C@H](C)NC(=O)[C@H](C)NC(=O)[C@H](CCC(N)=O)NC(=O)[C@H](CCC(=O)O)NC(=O)[C@H](CCC(=O)O)NC(=O)[C@H](CC(C)C)NC(=O)[C@H](Cc1ccc(O)cc1)NC(=O)[C@H](CO)NC(=O)[C@H](CO)NC(=O)[C@@H](NC(=O)[C@H](CC(=O)O)NC(=O)[C@H](CO)NC(=O)[C@@H](NC(=O)[C@H](Cc1ccccc1)NC(=O)[C@@H](NC(=O)CNC(=O)[C@H](CCC(=O)O)NC(=O)[C@H](C)NC(=O)CCc1cnc[nH]1)[C@@H](C)O)[C@@H](C)O)C(C)C)C(=O)N[C@@H](C)C(=O)N[C@@H](Cc1c[nH]c2ccccc12)C(=O)N[C@@H](CC(C)C)C(=O)N[C@H](C(=O)N[C@@H](CCCNC(=N)N)C(=O)NCC(=O)N[C@@H](CCCNC(=N)N)C(=O)N[C@@H](CCCCNC(=O)COCCOCCNC(=O)COCCOCCNC(=O)CC[C@H](NC(=O)CCCCCCCCCCCCCCCCC(=O)O)C(=O)O)C(=O)NCC(=O)NCC(=O)N[C@@H](CO)C(=O)N[C@@H](CCCCNc1c(NCCCCCN(O)C(=O)CCC(=O)NCCCCCN(O)C(=O)CCC(=O)NCCCCCN(O)C(C)=O)c(=O)c1=O)C(=O)N[C@@H](CCCCNc1c(NCCCCCN(O)C(=O)CCC(=O)NCCCCCN(O)C(=O)CCC(=O)NCCCCCN(O)C(C)=O)c(=O)c1=O)C(=O)O)C(C)C  EC50 (GLP1R; cAMP reporter gene, agonist, CRE luciferase; BHK; with Zr, 0% HSA): 0.0068 nM
COc1cc(Nc2ncc(F)c(Nc3ccc4c(n3)NC(=O)C(C)(C)O4)n2)cc(OC)c1OC  IC50 (ADRB1 (Homo sapiens, UniProt P08588)): > 10 µM
CC[C@H](C)[C@H](NC(=O)[C@H](Cc1ccccc1)NC(=O)[C@H](CCC(=O)O)NC(=O)[C@H](CCCNC(=N)N)NC(=O)[C@H](C)NC(=O)[C@H](C)NC(=O)[C@H](CCC(N)=O)NC(=O)[C@H](CCCCNc1c(NCCCCCN(O)C(=O)CCC(=O)NCCCCCN(O)C(=O)CCC(=O)NCCCCCN(O)C(C)=O)c(=O)c1=O)NC(=O)[C@H](CCC(=O)O)NC(=O)[C@H](CC(C)C)NC(=O)[C@H](Cc1ccc(O)cc1)NC(=O)[C@H](CO)NC(=O)[C@H](CO)NC(=O)[C@@H](NC(=O)[C@H](CC(=O)O)NC(=O)[C@H](CO)NC(=O)[C@@H](NC(=O)[C@H](Cc1ccccc1)NC(=O)[C@@H](NC(=O)CNC(=O)[C@H](CCC(=O)O)NC(=O)[C@H](C)NC(=O)CCc1cnc[nH]1)[C@@H](C)O)[C@@H](C)O)C(C)C)C(=O)N[C@@H](C)C(=O)N[C@@H](Cc1c[nH]c2ccccc12)C(=O)N[C@@H](CC(C)C)C(=O)N[C@H](C(=O)N[C@@H](CCCCNc1c(NCCCCCN(O)C(=O)CCC(=O)NCCCCCN(O)C(=O)CCC(=O)NCCCCCN(O)C(C)=O)c(=O)c1=O)C(=O)NCC(=O)N[C@@H](CCCNC(=N)N)C(=O)N[C@@H](CCCCNC(=O)COCCOCCNC(=O)COCCOCCNC(=O)CC[C@H](NC(=O)CCCCCCCCCCCCCCCCC(=O)O)C(=O)O)C(=O)O)C(C)C  EC50 (GLP1R; cAMP reporter gene, agonist, CRE luciferase; BHK; without Zr, 0% HSA): 0.085 nM
N[C@@H](CS)C(=O)O  Ki (SclA protein (Enterococcus faecalis, UniProt Q831E3, H100A)): 390 ± 50 µM
C[C@H]1CN(c2n[nH]c3nc(N[C@H]4CC[C@H](NS(=O)(=O)CCC(F)(F)F)CC4)ncc23)CCO1  IC50 (DDB1 (Homo sapiens, UniProt Q16531); biochemical): ≥ 20 µM
C[C@@H](O)[C@@H](CO)NC(=O)[C@@H](CCCNC(=N)N)NC(=O)[C@@H]1CCCN1C(=O)[C@@H]1CSSC[C@H](NC(=O)[C@H](Cc2ccccc2)NC(=O)CN2CCN(CC(=O)O)CCN(CC(=O)O)CCN(CC(=O)O)CC2)C(=O)N[C@@H](Cc2ccc(O)cc2)C(=O)N[C@@H](Cc2ccccc2)C(=O)N[C@@H](CCC(N)=O)C(=O)N[C@@H](CC(N)=O)C(=O)N1 [gallium-68 labelled]  tissue uptake (Wistar rat, kidneys; intravenous, 8 MBq, 60 min, group mean): 2.95 %ID/g
CC[C@H](C)[C@H](NC(=O)[C@H](Cc1ccccc1)NC(=O)[C@H](CCC(=O)O)NC(=O)[C@H](CCCNC(=N)N)NC(=O)[C@H](C)NC(=O)[C@H](C)NC(=O)[C@H](CCC(N)=O)NC(=O)[C@H](CCC(=O)O)NC(=O)[C@H](CCC(=O)O)NC(=O)[C@H](CC(C)C)NC(=O)[C@H](Cc1ccc(O)cc1)NC(=O)[C@H](CO)NC(=O)[C@H](CO)NC(=O)[C@@H](NC(=O)[C@H](CC(=O)O)NC(=O)[C@H](CO)NC(=O)[C@@H](NC(=O)[C@H](Cc1ccccc1)NC(=O)[C@@H](NC(=O)CNC(=O)[C@H](CCC(=O)O)NC(=O)[C@H](C)NC(=O)CCc1cnc[nH]1)[C@@H](C)O)[C@@H](C)O)C(C)C)C(=O)N[C@@H](C)C(=O)N[C@@H](Cc1c[nH]c2ccccc12)C(=O)N[C@@H](CC(C)C)C(=O)N[C@H](C(=O)N[C@@H](CCCCNc1c(NCCCCCN(O)C(=O)CCC(=O)NCCCCCN(O)C(=O)CCC(=O)NCCCCCN(O)C(C)=O)c(=O)c1=O)C(=O)NCC(=O)N[C@@H](CCCNC(=N)N)C(=O)N[C@@H](CCCCNc1c(NCCCCCN(O)C(=O)CCC(=O)NCCCCCN(O)C(=O)CCC(=O)NCCCCCN(O)C(C)=O)c(=O)c1=O)C(=O)NCC(=O)NCC(=O)N[C@@H](CO)C(=O)N[C@@H](CCCCNC(=O)COCCOCCNC(=O)COCCOCCNC(=O)CC[C@H](NC(=O)CCCCCCCCCCCCCCCCC(=O)O)C(=O)O)C(=O)O)C(C)C  EC50 (GLP1R; cAMP reporter gene, agonist, CRE luciferase; BHK; with Zr, 1% HSA): 0.17 nM
CC/C=C/C(=O)N[C@@H]1C(=O)N(CC)c2c(c(C)nn2-c2ccccc2)[C@@H]1c1ccc(F)cc1  IC50 (DCN1-like protein 1): > 15 µM
Nc1nc2c(ncn2[C@@H]2O[C@@H]3COP(=O)(O)O[C@H]4[C@@H](O)[C@H](n5cnc6c(=O)[nH]c(N)nc65)O[C@@H]4COP(=O)(O)O[C@H]3[C@H]2O)c(=O)[nH]1  Kd (Cell cycle histidine kinase CckA, DHp-CA domains (Caulobacter vibrioides, UniProt Q9X688); isothermal titration calorimetry; Caulobacter crescentus; 12 °C, added: ADP 5 mM): 34 µM
O=C(c1cccnc1-c1ccncc1)N1CCC(O)(Cc2ccccc2)CC1  EC50 (CYP46A1 (Homo sapiens, UniProt Q9Y6A2); enzyme occupancy, PET; healthy adults; PK/PD model): 15.7 nM
Cc1nn(-c2ccccc2)c2c1[C@H](c1ccsc1)[C@H](NC(=O)c1cccc(C(F)(F)F)c1)C(=O)N2  IC50 (DCN1-like protein 1): > 15 µM
CC[C@H](C)[C@H](NC(=O)[C@H](Cc1ccccc1)NC(=O)[C@H](CCC(=O)O)NC(=O)[C@H](CCCNC(=N)N)NC(=O)[C@H](C)NC(=O)[C@H](C)NC(=O)[C@H](CCC(N)=O)NC(=O)[C@H](CCC(=O)O)NC(=O)[C@H](CCC(=O)O)NC(=O)[C@H](CC(C)C)NC(=O)[C@H](Cc1ccc(O)cc1)NC(=O)[C@H](CO)NC(=O)[C@H](CO)NC(=O)[C@@H](NC(=O)[C@H](CC(=O)O)NC(=O)[C@H](CO)NC(=O)[C@@H](NC(=O)[C@H](Cc1ccccc1)NC(=O)[C@@H](NC(=O)CNC(=O)[C@H](CCC(=O)O)NC(=O)[C@H](C)NC(=O)CCc1c[nH]cn1)[C@@H](C)O)[C@@H](C)O)C(C)C)C(=O)N[C@@H](C)C(=O)N[C@@H](Cc1c[nH]c2ccccc12)C(=O)N[C@@H](CC(C)C)C(=O)N[C@H](C(=O)N[C@@H](CCCNC(=N)N)C(=O)NCC(=O)N[C@@H](CCCNC(=N)N)C(=O)N[C@@H](CCCCNC(=O)COCCOCCNC(=O)COCCOCCNC(=O)CC[C@H](NC(=O)CCCCCCCCCCCCCCCCC(=O)O)C(=O)O)C(=O)NCC(=O)NCC(=O)N[C@@H](CO)C(=O)N[C@@H](CCCCNc1c(NCCCCCN(O)C(=O)CCC(=O)NCCCCCN(O)C(=O)CCC(=O)NCCCCCN(O)C(C)=O)c(=O)c1=O)C(=O)O)C(C)C [zirconium-89 labelled]  tissue uptake (ex vivo gamma counting; rat, duodenum content; subcutaneous, 3 nmol/kg, 24 h, added: [89Zr]-labelled peptide): 0.08 %ID/g
CC[C@H](C)[C@@H]1NC(=O)[C@@H]2CCCN2C(=O)[C@H](CC(C)C)NC(=O)[C@H](CC(C)C)NC(=O)CNC(=O)[C@@H](NC(=O)[C@@H](NC(=O)[C@H](CC(=O)O)NC(=O)CNC(=O)[C@@H](NC(=O)[C@H](C)NC(=O)CNC(=O)[C@H](CCCCN)NC(=O)[C@H](CC(C)C)NC(=O)[C@H](CC(C)C)NC(=O)[C@H](CCCCN)NC(=O)CNC(=O)[C@@H](NC(=O)[C@@H](N)CC(C)C)C(C)C)C(C)C)C(C)C)CSSC[C@@H](C(=O)O)NC1=O  log2 fold change (RNA-seq, item: Per1; mouse, traumatic brain injury model, frontal cortex and hippocampus; dose not given; reference: TBI alone): -0.823
COc1cc2c(Oc3ccc4[nH]c(C)cc4c3F)ccnc2cc1OCC1(N)CC1  incidence of adverse event (item: grade 3 abdominal pain; paediatric high-risk refractory sarcoma; 8 mg): 0%

Repeated from above:
C[C@@H](O)[C@@H](CO)NC(=O)[C@@H](CCCNC(=N)N)NC(=O)[C@@H]1CCCN1C(=O)[C@@H]1CSSC[C@H](NC(=O)[C@H](Cc2ccccc2)NC(=O)CN2CCN(CC(=O)O)CCN(CC(=O)O)CCN(CC(=O)O)CC2)C(=O)N[C@@H](Cc2ccc(O)cc2)C(=O)N[C@@H](Cc2ccccc2)C(=O)N[C@@H](CCC(N)=O)C(=O)N[C@@H](CC(N)=O)C(=O)N1 [gallium-68 labelled]  tissue uptake (Wistar rat, kidneys; intravenous, 8 MBq, 60 min, group mean): 2.95 %ID/g
